Assay results from different studies.
A part holds a random share of what one study measured. Positions count from the first letter of the parent shown.

Study 1
Target: CCNB1, cyclin fold, Cln2 fusion (human)
Method: yeast growth competition, sequencing
Sample: yeast
Setting: strong parent motif
Relative to: not given
Direction: higher = stronger binding
Starting sequence: RBL2 docking peptide (human); STTRRRLFVENDS
Change	normalised enrichment score
R5D	0.0635
L7Y	-0.144
L7F	0.675
E10M	1.24
S13T	0.498
T3W	0.823
E10N	0.491
E10C	0.536
T3P	1.01
E10L	-0.17
R4S	-0.165

Study 2
Target: Sal-like protein 4, full length isoform A (SALL4, Homo sapiens, UniProt Q9UJQ4, residues 1-1053)
Chain of UniProt Q9UJQ4 (whole entry, looked up): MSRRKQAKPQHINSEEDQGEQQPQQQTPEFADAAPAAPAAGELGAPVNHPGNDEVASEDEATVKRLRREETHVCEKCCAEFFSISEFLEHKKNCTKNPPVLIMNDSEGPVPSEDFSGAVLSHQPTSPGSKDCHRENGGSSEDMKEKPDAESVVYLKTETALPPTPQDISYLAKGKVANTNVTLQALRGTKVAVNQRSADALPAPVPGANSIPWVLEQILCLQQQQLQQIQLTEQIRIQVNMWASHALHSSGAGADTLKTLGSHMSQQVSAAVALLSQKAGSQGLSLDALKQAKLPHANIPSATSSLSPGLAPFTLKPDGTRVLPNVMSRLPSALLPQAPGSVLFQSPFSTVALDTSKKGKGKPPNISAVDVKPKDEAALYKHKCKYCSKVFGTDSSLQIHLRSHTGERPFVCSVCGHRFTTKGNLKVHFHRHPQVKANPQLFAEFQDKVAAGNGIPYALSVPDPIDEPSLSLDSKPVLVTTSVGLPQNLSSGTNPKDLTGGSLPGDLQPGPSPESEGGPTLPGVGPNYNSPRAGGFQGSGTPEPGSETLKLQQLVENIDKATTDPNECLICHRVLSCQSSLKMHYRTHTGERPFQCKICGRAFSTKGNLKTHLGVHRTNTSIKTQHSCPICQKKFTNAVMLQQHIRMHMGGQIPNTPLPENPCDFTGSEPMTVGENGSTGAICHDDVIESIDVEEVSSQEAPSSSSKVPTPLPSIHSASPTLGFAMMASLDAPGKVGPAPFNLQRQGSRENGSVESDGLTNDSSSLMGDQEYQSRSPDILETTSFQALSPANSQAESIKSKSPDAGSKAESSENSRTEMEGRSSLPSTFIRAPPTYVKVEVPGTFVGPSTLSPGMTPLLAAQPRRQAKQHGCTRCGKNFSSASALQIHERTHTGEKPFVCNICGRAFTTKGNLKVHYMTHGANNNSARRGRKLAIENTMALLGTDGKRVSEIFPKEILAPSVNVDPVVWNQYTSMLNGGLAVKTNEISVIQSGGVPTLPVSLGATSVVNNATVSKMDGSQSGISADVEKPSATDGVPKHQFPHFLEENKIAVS
Method: universal PBM
Form: double-stranded DNA, one strand shown
Sample: in vitro
Tested at: 600 nM
Setting: 8-mer, flanks averaged, mean of replicates
Direction: higher = stronger binding
Sequence	E-score
CTATAACA	0.224
AAGTCAAT	0.162
GAGCGTCC	-0.319
GAGTCATC	-0.153
CGTTGCAG	-0.146
ATGCAGAG	-0.0604
GTTTCTAA	0.155
AAGGTCCT	-0.0863
CAACTGTA	0.156

Study 3
Target: Prothrombin, mature alpha-thrombin (F2, Homo sapiens, UniProt P00734)
Method: aptamer microarray, sandwich
Form: DNA with 2'F-ANA
Sample: in vitro
Tested at: 200 nM
Setting: whole 15-mer aptamer, many near background
Together with: Cy3 exosite-II aptamer, 400 nM
Direction: higher = stronger binding
Sequence: GGTTGGTGTGGTTGG
Modification	mean fluorescence intensity [a.u.]
2'F-ANA at 1 2 3 4 5 9 12	136
2'F-ANA at 2 4 5 6 8 10 11 12 15	57.3
2'F-ANA at 2 5 6 9 10 12 13 15	57.5
2'F-ANA at 1 5 7 9 13 14 15	56
2'F-ANA at 3 5 6 7 8 9 13 14	64.6
2'F-ANA at 4 6 8 9 12	571
2'F-ANA at 1 5	73.7
2'F-ANA at 1 2 4 5 11 12 14	48.5

Further values, each from its own experiment
Substance	target	assay	test system	conditions	scale	measurement	result
PhoQ, residues 284 288 289 292 302 303 QWGLFV	PhoP, residues 12 14 15 18 19 AWHSL (Escherichia coli, UniProt P23836)	Sort-seq, measured: YFP reporter	E. coli	PhoQ-PhoP variant library, together with: 10 µM Mg2+	relative to: high Mg2+ state, higher = stronger signaling	fold induction	2.47

For quick reference, copied from above (study 2):
Sequence	E-score
CAACTGTA	0.156
ATGCAGAG	-0.0604
AAGGTCCT	-0.0863
CTATAACA	0.224
